Published values of several laboratories.
A part holds a random share of what one study measured.

Study 1 — method: protein-binding microarray; molecule type: double-stranded DNA, one strand shown; matrix: in vitro; concentration: 250 nM; notes: 60-bp whole probe; with: salmon DNA 0.4 mg/ml; relative to: random background probes; direction: higher = stronger binding; all sequences stand within: GCCTAGCAC … GTCTTGATTCGCTTGACGCTGCTG
Target: Interferon regulatory factor 7, full length, phosphomimetic (IRF7, Homo sapiens, UniProt Q92985, residues 1-503, S101K/S471D/S472D/S475D/S476D/S477D/S483D/S484D/S487D)
Construct (chain): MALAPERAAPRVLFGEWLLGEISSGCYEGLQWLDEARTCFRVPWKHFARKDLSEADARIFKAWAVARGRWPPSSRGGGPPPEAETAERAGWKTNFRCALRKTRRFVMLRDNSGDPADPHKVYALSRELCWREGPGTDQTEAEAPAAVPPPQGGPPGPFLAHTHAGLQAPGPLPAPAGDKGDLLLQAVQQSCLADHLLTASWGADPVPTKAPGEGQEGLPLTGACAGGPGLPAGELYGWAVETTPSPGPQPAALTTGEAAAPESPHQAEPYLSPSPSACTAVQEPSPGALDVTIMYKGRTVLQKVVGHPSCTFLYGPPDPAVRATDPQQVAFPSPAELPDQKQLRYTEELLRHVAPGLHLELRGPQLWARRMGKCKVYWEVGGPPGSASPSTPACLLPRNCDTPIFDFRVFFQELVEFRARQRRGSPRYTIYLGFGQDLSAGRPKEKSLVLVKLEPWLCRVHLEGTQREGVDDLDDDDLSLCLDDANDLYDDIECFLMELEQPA
Sequence | log fluorescence [z-score]
TCAATATTGAGACTCATACTGTGCTAG | 0.582
AAAAATGATTGGTTGAACATGTGCTAG | -0.399
TTAGTACTGCTTCTCCTTTAGTGCTAG | 1.09
TTAGATATCAGTTTGGATTAGTGCTAG | -0.0906
TTAGATTTCAATTCCGATTAGTGCTAG | 0.718
GACGGGTCCCTTTTCCTGACGTGCTAG | 1.43
GTCTGTTTCCTCTTTCTTTGGTGCTAG | 2.35
TTAGGTATCGGGTTTTGGTTAGTGCTA | 1.72
TTAGGTTTCGACACTGTGTTAGTGCTA | 3.71
TTAGATATCAGTCTCGAATAGTGCTAG | 0.481
TTAGATTTGAGTTTCGATTAGTGCTAG | 7.94
TCAAATTACCTTTTCACACTGTGCTAG | 1.06
TCAGGTTTTTTTTTAATACTGTGCTAG | 0.384
TTAGTTTTCGGGTATCGGTTAGTGCTA | 3.4
GACGGACTGCTTAACCTGACGTGCTAG | -0.316
GACGGACTGGGGTATCGCGACGTGCTA | -0.812
TTAGATATCAGTTTCGATTTGTGCTAG | 12.8
GACGGCCTGCTTCTCCTGACGTGCTAG | -0.232
GACGGAGTGGGGTTTCGGGACGTGCTA | 1.05

Study 2 — organism: Saccharomyces cerevisiae; observed: binding; method: yeast competitive growth sequencing; molecule type: peptide; notes: cyclin B2-Cln2 chimera; direction: direction not given
Molecule | enrichment score
QNPCGSKACRRLFGPV | -1.15
ATNSSHTDAHEILVSD | 0.689
AEHPKPSACRNLFGPV | -0.435
DKYDEGLYRFNSLNDL | 1.05
ASVLSKPIFCFVKD | -0.385
NEGVSNAVRRSLYIRD | -0.481
EHCRVLFLDHVMYTIH | -0.499
ESSQLTVQAEFDMSAI | 0.156
SNFFDVIKQLFSDEKN | -1.4
QYQVVDDIVSKLVFDF | 0.26
VLPGGVPSPGASLTSM | -0.45
HPESPPRKRLKSKGSD | 4.76
DVSERGYVILPNDYFE | 0.784
NSMKELNFSHLPSNSV | 0.816
LENIEPLQVSFAVLSS | 1.01
NESHLDKEHDAVEVAD | 0.213
KVRRNLFNQELLSP | -0.245

Study 3 — method: RNA Bind-n-Seq; molecule type: RNA; matrix: in vitro; concentration: 200 nM; notes: whole 134-nt RNA, ends assumed; with: 150 mM LiCl; relative to: input library; direction: higher = stronger binding; library: 7-deaza-guanosine replaces G
Target: Ras GTPase-activating protein-binding protein 1, full length (G3BP1, Homo sapiens, UniProt Q13283)
Sequence of UniProt Q13283 (whole entry, looked up): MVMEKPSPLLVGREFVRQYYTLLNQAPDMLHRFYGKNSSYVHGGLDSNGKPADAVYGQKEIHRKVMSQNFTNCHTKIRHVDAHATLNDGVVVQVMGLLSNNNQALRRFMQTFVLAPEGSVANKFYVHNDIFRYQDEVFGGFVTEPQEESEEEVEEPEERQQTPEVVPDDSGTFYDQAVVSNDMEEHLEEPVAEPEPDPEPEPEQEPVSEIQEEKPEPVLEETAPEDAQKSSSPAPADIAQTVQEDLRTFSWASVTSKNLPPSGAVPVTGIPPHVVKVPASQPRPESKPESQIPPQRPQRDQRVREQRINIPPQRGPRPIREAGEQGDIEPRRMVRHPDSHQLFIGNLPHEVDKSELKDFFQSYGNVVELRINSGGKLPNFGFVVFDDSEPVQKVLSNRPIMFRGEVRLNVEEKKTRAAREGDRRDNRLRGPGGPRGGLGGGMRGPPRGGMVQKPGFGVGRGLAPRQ
Sequence | log2 enrichment
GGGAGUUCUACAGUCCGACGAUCUGGCCCUGGUGGCAUGCGGGGAGGAAGAGGUGGCCUCAUGGAUCGUGGUGGUCCCGGUGGAAUGUUCAGAGGUGGCCGUGGUGGAGUCAGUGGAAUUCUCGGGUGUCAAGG | 0.177
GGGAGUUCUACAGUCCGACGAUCACCAUGCAGGUGGGCAUCUUUGGGAAGUGGGGCAAGGGGGGGAUAGGGAGGGGGGUAACACUCUGGGAACAGGUGGUCCCAGGUCGUUUCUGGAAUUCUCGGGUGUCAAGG | 0.34
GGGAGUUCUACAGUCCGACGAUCCUCAAGUCCUGUGCUACACAUCGUAUGUACCGAAUCGGAGGUUUUUUUGGUGGAAAGUAUUAUGUUACGCCGUUCGGAUCUGCACUUCCAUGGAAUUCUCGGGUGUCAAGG | -0.239
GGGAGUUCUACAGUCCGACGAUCCAAGUCCUGUGCUACACAUCGUAUGUACCGAAUCGGGAAAAAGGGAGGGAAAGGGAAAGUAUUAUGUUACGCCGUUCGGAUCUGCACUUCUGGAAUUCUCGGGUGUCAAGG | -0.303
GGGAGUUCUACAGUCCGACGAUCUCCUGUGCUACACAUCGUAUGUACCGAAUCGGAAAAAGGGGAAAAAGGGGAAAAAGGGGAAAGUAUUAUGUUACGCCGUUCGGAUCUGCAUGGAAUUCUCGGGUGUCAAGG | -0.161
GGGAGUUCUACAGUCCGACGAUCUCAAGUCCUGUGCUACACAUCGUAUGUACCGAAUCGGGUUUGGGUUUGGUUUGGAAAGUAUUAUGUUACGCCGUUCGGAUCUGCACUUCCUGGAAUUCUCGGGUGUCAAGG | -0.388
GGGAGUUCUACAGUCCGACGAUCGUCCUGUGCUACACAUCGUAUGUACCGAAUCAAACCCCCAAACCCCCAAACCCCCAAAAAAGUAUUAUGUUACGCCGUUCGGAUCUGCACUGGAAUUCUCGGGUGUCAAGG | -0.421
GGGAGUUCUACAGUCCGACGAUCCUCAAGUCCUGUGCUACACAUCGUAUGUACCGAAUCGGGAAGGAAGGGAAGGGGAAAGUAUUAUGUUACGCCGUUCGGAUCUGCACUUCCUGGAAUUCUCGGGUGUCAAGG | 0.285
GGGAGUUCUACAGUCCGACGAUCUCCUCAAGUCCUGUGCUACACAUCGUAUGUACCGAAUCGGGUGGUGGGGUGGAAAGUAUUAUGUUACGCCGUUCGGAUCUGCACUUCCAGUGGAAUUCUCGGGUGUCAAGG | 0.27
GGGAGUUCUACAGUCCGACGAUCGUCCUGUGCUACACAUCGUAUGUACCGAAUCAAAUUUUUAAACCCAAAUUUUUUUAAAAAAGUAUUAUGUUACGCCGUUCGGAUCUGCACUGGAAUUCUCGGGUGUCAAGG | -2.01
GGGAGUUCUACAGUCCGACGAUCACCAUACAGGUGGGCAUCUUUGGGAAGUGGGGCAAGGGGGGGAUAGGGAGGGGGGUAACACUUUGGGAACAGGUGGUCCCAGGUCGUUUCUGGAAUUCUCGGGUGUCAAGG | 0.431

Study 4 — method: aptamer microarray, sandwich; molecule type: DNA with 2'F-ANA; matrix: in vitro; concentration: 200 nM; with: Cy3 exosite-II aptamer, 400 nM; direction: higher = stronger binding; sequence: GGTTGGTGTGGTTGG
Target: Prothrombin, mature alpha-thrombin (F2, Homo sapiens, UniProt P00734)
Notes: whole 15-mer aptamer, many near background
Modification | mean fluorescence intensity [a.u.]
2'F-ANA at 2 4 6 7 8 9 10 12 13 | 96.8
2'F-ANA at 2 3 5 11 14 15 | 123
2'F-ANA at 1 2 5 7 9 12 15 | 106
2'F-ANA at 2 3 5 6 12 14 | 53.4
2'F-ANA at 3 6 7 8 9 12 14 | 640
2'F-ANA at 5 13 14 | 45.2
2'F-ANA at 1 2 3 5 7 8 9 11 12 13 | 81.5
2'F-ANA at 1 11 | 170
2'F-ANA at 1 2 4 7 8 13 15 | 101
2'F-ANA at 3 4 9 10 11 13 | 257
2'F-ANA at 1 2 3 5 6 7 8 11 13 | 54.5
2'F-ANA at 2 3 4 6 13 15 | 378
2'F-ANA at 1 2 8 10 12 14 | 46.4
2'F-ANA at 2 4 6 8 9 10 11 12 | 155
2'F-ANA at 5 7 8 9 11 12 13 14 | 53.8
2'F-ANA at 1 2 3 6 9 10 11 14 15 | 54.4
2'F-ANA at 1 2 7 8 9 10 11 13 14 | 49.3
2'F-ANA at 2 3 7 9 11 12 13 | 827
2'F-ANA at 1 4 5 6 8 10 12 13 14 | 50.7

A few entries again (study 1):
Sequence | log fluorescence [z-score]
TCAATATTGAGACTCATACTGTGCTAG | 0.582
GACGGGTCCCTTTTCCTGACGTGCTAG | 1.43
TTAGATTTCAATTCCGATTAGTGCTAG | 0.718
TCAGGTTTTTTTTTAATACTGTGCTAG | 0.384
